Experimental data collected from several papers.
Numbered parts are unrelated; each lists some results of a single study. Several values in a cell are separate wells, animals, samples, runs or records.
Sequence of UniProt P21127 (whole entry, looked up): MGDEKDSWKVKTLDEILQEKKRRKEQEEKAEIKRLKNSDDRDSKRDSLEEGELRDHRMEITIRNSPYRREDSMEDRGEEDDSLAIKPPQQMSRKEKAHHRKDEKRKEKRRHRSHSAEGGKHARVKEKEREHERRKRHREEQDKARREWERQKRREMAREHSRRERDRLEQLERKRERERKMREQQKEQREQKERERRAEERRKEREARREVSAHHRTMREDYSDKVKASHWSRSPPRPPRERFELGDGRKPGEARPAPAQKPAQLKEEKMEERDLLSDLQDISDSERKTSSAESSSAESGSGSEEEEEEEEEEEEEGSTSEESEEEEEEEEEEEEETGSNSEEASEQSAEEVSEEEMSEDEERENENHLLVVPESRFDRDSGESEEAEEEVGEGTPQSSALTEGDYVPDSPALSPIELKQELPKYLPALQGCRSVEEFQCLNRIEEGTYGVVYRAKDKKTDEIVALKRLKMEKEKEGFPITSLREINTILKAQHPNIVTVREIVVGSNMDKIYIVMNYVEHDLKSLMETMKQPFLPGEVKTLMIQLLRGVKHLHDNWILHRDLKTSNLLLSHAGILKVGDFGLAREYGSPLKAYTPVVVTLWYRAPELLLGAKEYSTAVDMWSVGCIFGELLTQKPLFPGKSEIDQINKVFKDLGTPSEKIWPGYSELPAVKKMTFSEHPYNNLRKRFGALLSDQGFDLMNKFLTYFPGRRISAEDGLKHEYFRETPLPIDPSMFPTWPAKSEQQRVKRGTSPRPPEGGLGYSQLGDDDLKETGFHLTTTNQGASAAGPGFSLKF
Sequence of UniProt Q00535 (whole entry, looked up): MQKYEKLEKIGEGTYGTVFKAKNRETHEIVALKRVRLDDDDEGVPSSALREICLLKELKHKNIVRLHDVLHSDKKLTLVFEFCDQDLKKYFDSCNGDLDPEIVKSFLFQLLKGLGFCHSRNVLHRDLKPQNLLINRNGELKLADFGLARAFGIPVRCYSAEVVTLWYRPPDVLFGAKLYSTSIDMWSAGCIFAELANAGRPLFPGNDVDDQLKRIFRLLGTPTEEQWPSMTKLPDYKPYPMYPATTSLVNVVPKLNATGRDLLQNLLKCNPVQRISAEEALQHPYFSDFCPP
Sequence of UniProt Q9HAZ1 (whole entry, looked up): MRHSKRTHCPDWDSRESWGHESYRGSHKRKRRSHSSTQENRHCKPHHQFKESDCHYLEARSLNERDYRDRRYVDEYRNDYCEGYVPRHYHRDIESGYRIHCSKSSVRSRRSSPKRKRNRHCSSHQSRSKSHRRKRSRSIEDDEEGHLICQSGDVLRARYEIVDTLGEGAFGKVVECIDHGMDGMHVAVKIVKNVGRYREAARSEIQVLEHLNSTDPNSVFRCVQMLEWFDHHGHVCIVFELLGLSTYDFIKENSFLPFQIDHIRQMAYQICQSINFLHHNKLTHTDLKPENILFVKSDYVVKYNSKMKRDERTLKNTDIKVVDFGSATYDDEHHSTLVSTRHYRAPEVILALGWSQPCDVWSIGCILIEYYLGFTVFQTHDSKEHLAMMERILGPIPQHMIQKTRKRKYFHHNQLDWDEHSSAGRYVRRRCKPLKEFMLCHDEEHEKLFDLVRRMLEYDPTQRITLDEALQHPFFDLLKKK
Sequence of UniProt Q15746 (whole entry, looked up): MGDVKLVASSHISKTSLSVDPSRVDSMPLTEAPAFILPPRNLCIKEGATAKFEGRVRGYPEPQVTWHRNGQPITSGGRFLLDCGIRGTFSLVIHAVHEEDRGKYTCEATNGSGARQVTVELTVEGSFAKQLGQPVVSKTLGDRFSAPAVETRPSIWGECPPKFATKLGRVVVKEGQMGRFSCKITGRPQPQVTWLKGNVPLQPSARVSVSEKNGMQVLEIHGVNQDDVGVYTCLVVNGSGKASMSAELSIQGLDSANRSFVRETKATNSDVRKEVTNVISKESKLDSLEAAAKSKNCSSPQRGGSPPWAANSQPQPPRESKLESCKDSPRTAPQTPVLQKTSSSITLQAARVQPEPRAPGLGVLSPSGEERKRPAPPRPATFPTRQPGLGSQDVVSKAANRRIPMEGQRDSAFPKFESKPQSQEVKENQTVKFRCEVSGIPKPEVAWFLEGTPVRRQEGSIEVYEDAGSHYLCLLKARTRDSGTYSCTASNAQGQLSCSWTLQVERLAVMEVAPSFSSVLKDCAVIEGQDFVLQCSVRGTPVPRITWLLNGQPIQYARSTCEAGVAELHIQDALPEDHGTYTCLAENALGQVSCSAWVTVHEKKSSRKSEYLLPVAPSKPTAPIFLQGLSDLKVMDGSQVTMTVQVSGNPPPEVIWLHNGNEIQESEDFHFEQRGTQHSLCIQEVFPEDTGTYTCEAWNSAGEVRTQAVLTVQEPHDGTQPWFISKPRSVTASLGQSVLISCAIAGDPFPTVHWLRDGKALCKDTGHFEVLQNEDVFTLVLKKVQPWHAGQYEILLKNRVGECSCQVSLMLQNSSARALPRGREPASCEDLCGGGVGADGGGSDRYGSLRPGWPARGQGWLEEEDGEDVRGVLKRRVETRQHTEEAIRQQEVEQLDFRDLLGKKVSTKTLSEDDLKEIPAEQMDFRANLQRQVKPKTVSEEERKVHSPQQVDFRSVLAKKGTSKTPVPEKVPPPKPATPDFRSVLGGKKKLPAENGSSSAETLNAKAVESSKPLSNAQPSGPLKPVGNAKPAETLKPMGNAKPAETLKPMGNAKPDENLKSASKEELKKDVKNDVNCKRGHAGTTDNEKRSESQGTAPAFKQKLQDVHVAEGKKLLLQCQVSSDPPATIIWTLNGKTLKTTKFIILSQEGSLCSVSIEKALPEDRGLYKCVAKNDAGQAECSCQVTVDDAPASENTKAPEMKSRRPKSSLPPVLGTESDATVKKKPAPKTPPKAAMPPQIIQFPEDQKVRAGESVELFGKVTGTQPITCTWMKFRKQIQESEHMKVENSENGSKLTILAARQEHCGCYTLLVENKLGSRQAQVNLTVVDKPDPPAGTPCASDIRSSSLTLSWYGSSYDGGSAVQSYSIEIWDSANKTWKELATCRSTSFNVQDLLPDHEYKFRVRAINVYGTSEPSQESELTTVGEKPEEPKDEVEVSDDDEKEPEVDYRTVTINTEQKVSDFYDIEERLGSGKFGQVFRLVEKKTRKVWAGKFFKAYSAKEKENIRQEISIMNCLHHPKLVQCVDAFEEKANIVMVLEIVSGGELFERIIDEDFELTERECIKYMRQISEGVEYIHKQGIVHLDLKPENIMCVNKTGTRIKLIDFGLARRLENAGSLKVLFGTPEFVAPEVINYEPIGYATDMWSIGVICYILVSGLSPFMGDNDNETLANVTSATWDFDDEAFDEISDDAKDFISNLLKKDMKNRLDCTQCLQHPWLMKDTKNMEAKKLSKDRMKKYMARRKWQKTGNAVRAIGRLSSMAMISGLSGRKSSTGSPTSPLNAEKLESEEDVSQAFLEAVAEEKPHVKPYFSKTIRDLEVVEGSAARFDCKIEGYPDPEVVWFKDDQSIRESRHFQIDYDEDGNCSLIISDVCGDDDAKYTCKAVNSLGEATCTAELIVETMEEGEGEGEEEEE

Sample 1 — concentration: 1 µM; quantity: remaining binding
SMILES: CC[C@@]1(c2cccc(C(F)(F)F)c2)C2=C(Nc3n[nH]cc31)[C@H](F)C(C)(C)CC2=O (single isomer, unassigned)
PHKG2 (Homo sapiens, UniProt P15735); binding, competition with immobilised ligand: 100%
CLK4 (Homo sapiens, UniProt Q9HAZ1); binding, competition with immobilised ligand: 100%
EGFR (Homo sapiens, UniProt P00533, L858R/T790M); binding, competition with immobilised ligand: 95%
CAMKK2 (Homo sapiens, UniProt Q96RR4); binding, competition with immobilised ligand: 100%
EGFR (Homo sapiens, UniProt P00533, T790M); binding, competition with immobilised ligand: 100%
CAMK2B (Homo sapiens, UniProt Q13554); kinase binding, KINOMEscan; baseline: DMSO control: 64%
MAP4K3 (Homo sapiens, UniProt Q8IVH8); kinase binding, KINOMEscan; baseline: DMSO control: 91%
CDK5 (Homo sapiens, UniProt Q00535); kinase binding, KINOMEscan; baseline: DMSO control: 100%
CDK11B (Homo sapiens, UniProt P21127); binding, competition with immobilised ligand: 100%
Ribosomal protein S6 kinase alpha-2, N-terminal kinase domain (RPS6KA2, Homo sapiens, UniProt Q15349); kinase binding, KINOMEscan; baseline: DMSO control: 100%
GAK (Homo sapiens, UniProt O14976); binding, competition with immobilised ligand: 65%
MYLK (Homo sapiens, UniProt Q15746); kinase binding, KINOMEscan; baseline: DMSO control: 100%

Sample 2 — effect on: binding; method: HTRF; quantity: inhibition
SMILES: Cc1ncc(-c2cc3c(C(N)=O)c(-c4c(C)ccc(O)c4C)cnc3[nH]2)cn1
Target: Membrane-associated tyrosine- and threonine-specific cdc2-inhibitory kinase (PKMYT1, Homo sapiens, UniProt Q99640)
Target sequence (Q99640 1-499): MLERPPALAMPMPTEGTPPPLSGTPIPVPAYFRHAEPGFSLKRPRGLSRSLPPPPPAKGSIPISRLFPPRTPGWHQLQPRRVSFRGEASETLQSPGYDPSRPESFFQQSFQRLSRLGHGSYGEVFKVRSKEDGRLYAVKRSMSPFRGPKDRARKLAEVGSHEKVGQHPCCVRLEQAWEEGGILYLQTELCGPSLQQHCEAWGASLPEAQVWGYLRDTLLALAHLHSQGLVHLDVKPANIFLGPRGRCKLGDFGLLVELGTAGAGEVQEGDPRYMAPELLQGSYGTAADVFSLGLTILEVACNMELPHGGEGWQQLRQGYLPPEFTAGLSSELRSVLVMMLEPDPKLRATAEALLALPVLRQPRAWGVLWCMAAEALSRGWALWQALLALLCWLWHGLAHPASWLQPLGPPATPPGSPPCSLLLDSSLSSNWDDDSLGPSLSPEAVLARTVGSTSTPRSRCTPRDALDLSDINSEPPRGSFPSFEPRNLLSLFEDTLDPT
10000 nM: 99.4% and 99.8%
41.15 nM: 12.9% and 12.3%
370.37 nM: 73.1% and 74.4%
13.72 nM: -4.52% and 0.35%
1111.11 nM: 89.7% and 90.3%
4.57 nM: -11.1% and -12.5%
1.52 nM: -15.2% and -14.4%
0.51 nM: -9% and -16.6%

Sample 3 — effect on: cell growth or viability; method: ATP luminescence; time: 6 days; quantity: viability
Structure (SMILES): Cc1ncsc1-c1ccc(C(CO)NC(=O)C2CC(O)CN2C(=O)C(C(C)C)n2cc(-c3ccc(COc4c(-c5c(C)c(F)cc6[nH]ncc56)c(C5CC5)cc5c(N6CC7CC6CN7)nc(OC6CCOCC6)nc45)cc3)nn2)cc1 (stereo not shown)
LCLC-97TM1; 1 nM: 107% and 110%
ASPC1; 10 µM: 3.7% and 3.8% and 5.08% and 15.1%
NCI-H358; 10 nM: 94.2% and 98.8% and 92.6% and 92.5%
BXPC-3; 0.1 µM: 158% and 119% and 118% and 76.5%
PSN1; 30 nM: 91.1% and 117% and 94% and 84.9%
LCLC-97TM1; 10 nM: 99.9% and 87.2% and 89.9% and 102%
T24; 1 nM: 96% and 96.9% and 104% and 97%

Sample 4 — effect on: thermal unfolding; method: differential scanning fluorimetry; concentration: 5.5 µM; reading: higher = more unfolded; quantity: SYPRO Orange fluorescence
SMILES: C[C@@H]1CN(c2ccc(-c3cc(C(=O)NCCOCCOCCOCCOCCNC(=O)Cn4cc(-c5[nH]cc(C(=O)N[C@@H](CC(N)=O)c6ccc(F)c(Cl)c6)c5-c5ccc(Cl)cc5F)cn4)ccc3F)cc2NC(=O)c2c[nH]c(=O)cc2C(F)(F)F)C[C@H](C)N1C
DCAF1: DDB1- and CUL4-associated factor 1 (DCAF1, Homo sapiens, UniProt Q9Y4B6)
Sequence of UniProt Q9Y4B6 (whole entry, looked up): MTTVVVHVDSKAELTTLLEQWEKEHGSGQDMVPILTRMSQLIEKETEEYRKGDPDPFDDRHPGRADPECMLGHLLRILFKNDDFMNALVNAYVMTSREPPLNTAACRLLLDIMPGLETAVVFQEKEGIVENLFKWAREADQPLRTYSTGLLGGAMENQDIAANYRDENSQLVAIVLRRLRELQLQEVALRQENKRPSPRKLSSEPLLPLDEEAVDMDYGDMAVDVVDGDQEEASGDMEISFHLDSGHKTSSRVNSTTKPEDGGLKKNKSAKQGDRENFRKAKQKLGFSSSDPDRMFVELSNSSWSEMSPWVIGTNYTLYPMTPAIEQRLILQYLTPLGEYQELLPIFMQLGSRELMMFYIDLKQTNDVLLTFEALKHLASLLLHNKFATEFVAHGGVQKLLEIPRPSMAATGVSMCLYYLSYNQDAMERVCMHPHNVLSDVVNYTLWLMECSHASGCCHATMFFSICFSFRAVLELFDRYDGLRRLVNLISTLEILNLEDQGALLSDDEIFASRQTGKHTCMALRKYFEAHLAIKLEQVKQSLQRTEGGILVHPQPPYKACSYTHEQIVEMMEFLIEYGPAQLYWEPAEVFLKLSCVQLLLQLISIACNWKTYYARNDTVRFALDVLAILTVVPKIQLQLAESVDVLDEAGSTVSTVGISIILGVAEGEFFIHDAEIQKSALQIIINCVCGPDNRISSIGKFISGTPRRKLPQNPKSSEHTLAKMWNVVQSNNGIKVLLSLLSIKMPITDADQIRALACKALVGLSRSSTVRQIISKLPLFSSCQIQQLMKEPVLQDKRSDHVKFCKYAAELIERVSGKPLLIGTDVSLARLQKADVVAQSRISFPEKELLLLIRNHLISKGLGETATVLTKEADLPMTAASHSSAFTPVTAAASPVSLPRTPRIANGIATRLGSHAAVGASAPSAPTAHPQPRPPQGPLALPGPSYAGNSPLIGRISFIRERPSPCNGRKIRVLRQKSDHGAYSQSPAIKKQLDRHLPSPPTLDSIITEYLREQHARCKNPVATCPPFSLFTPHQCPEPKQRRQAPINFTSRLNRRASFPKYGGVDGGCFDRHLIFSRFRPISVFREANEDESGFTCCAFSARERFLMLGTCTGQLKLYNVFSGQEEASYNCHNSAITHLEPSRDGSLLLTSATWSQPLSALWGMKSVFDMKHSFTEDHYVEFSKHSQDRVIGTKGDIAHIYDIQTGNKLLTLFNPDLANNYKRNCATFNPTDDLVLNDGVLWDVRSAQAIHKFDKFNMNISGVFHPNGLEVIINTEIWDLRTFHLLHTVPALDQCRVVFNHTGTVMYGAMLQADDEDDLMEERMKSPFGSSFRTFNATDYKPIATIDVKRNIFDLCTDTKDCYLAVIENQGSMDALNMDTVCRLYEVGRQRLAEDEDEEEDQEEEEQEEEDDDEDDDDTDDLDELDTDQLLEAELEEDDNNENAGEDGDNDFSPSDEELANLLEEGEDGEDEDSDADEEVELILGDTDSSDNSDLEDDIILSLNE
WDR5: WD repeat-containing protein 5 (WDR5, Homo sapiens, UniProt P61964)
DCAF1; 34.8 °C: 8790 a.u.
WDR5; 53.61 °C: 14200 a.u.
DCAF1; 72.01 °C: 52400 a.u.
DCAF1; 63.81 °C: 53800 a.u.
DCAF1; 28.2 °C: 7890 a.u.
DCAF1; 81.41 °C: 43000 a.u.
WDR5; 35.2 °C: 14300 a.u.

Excerpt of the above (sample 1):
CDK5 (Homo sapiens, UniProt Q00535); kinase binding, KINOMEscan; baseline: DMSO control: 100%
CDK11B (Homo sapiens, UniProt P21127); binding, competition with immobilised ligand: 100%
